# Measured values collected from several papers.
# Lines come from different studies, so protocols differ. Values joined by “and” are separate records of one study, mostly repeats; a detail may differ. Numbers after ± are the reported error.
SMILES,test,system,setting,scale,quantity,result
C[C@H]1O[C@@H](O[C@H]2CC[C@@]3(C)[C@@H](CC[C@]4(C)[C@@H]3C=C[C@]35OC[C@@]6(CCC(C)(C)C[C@H]63)[C@@H](O)C[C@]54C)[C@]2(C)CO)[C@H](O)[C@@H](O[C@@H]2O[C@H](CO)[C@@H](O)[C@H](O)[C@H]2O)[C@H]1O,item: PGC-1α,"chronic-plus-binge ethanol-fed mice, AAV8-TBG-Null, liver","dose not given, high dose, unit not given",reference: AAV8-TBG-Null ethanol group,mRNA level,2.75 and 1.72 and 1.76 and 2.4
Clc1cc2c(cc1Cl)Oc1cc(Cl)c(Cl)cc1O2,"RNA-Seq, item: Ptger3","Sprague-Dawley rat, female, liver",10 µg/kg,reference: vehicle,mRNA fold change,1.8 fold
C=CCNc1c(O)cc2c(O)c1C[C@@H](C)C[C@H](OC)[C@H](O)[C@@H](C)/C=C(\C)[C@H](OC(N)=O)[C@@H](OC)/C=C\C=C(/C)C(=O)N2,RECIST v1.0,human soft tissue sarcoma,"concentration not given, stable 12 weeks",,patients with stable disease,18%
CC(C)(C)CC(C)(C)c1ccc(OCCOCC[N+](C)(C)Cc2ccccc2)cc1,,"C57BL/6J mouse, male, hippocampal slices, Schaffer collateral-CA1","10 nM, 60 min",reference: vehicle,fEPSP slope,increased
Cc1nc(Nc2ccc(CC(=O)O)cc2)nc(Nc2ccc(F)c(C(F)(F)F)c2)c1C,item: ACC1,"C57BL/6J mice, high-fat diet, liver","intraperitoneal, 0.3 mg/kg daily, 60% fat diet 12 weeks, dosed last four",reference: vehicle,mRNA level,decreased
[Cl][Ru-]([Cl])([Cl])[Cl].[Na+].c1ccc2[nH]ncc2c1.c1ccc2[nH]ncc2c1,"CT, RECIST 1.1",human,320 mg/m2,,duration of partial response,9 weeks
COc1ccc2c(c1)CC[C@@H]1[C@@H]2CC[C@]2(C)[C@@H](NCCCCCCN3C(=O)C=CC3=O)CC[C@@H]12,"calcium response, decay phase","N2a, mouse","1 µM, with: BzATP 300 µM",,inhibition,55%
CN1CCN(S(=O)(=O)c2cc([N+](=O)[O-])ccc2N(CCOS(C)(=O)=O)CCOS(C)(=O)=O)CC1,,"NSG mice, sample BC PDX","intraperitoneal, 25 mg/kg weekly x3",reference: vehicle,EFS delay (T-C),32.3 days
CN(CC[C@H](N)CC(=O)N[C@H]1C=C[C@H](n2ccc(N)nc2=O)O[C@@H]1C(=O)O)C(=N)N,translation,rabbit reticulocyte lysate,,,IC50,7 ± 1 nM
FC(F)(F)c1ccc2c(c1)[C@@H]1CNC[C@H]2C1,two-bottle choice,"Wistar rat, intermittent 20% ethanol access","subcutaneous, 1 mg/kg, 6 h",,ethanol intake,3 ± 0.2 g/kg
NNc1ccccc1,"hydrazine ligation kinetics, absorbance",,"concentration not given, 50 s, with: 2-formylphenylboronic acid",,normalised absorbance,0.92
CS(=O)(=O)c1ccc(-c2nnc(/C=C/c3nnc(-c4ccc(C#N)cc4)o3)n2-c2ccccc2Cl)nc1,"RNA-seq GSEA, item: HALLMARK_MYC_TARGETS_V1","organoids, small intestinal, Apc Q1405X, mouse","dose not given, wild-type organoids","reference: DMSO, direction not given",normalized enrichment score,-2.82
CC[C@@H](C)[C@@H](NC(=O)[C@@H](Cc1ccc(O)cc1)NC(=O)[C@H]1CCCN1C(=O)[C@@H](CCCNC(=N)N)NC(=O)[C@H](N)Cc1c[nH]cn1)C(=O)N[C@H](C)C(=O)N[C@H](Cc1c[nH]cn1)C(=O)N[C@H](CCCNC(=N)N)C(=O)N[C@H](CCCCNC(=O)c1cccc(S(=O)(=O)F)c1)C(=O)N[C@H](Cc1ccc(O)cc1)C(=O)N[C@H](CO)C(=O)N[C@H](Cc1ccccc1)C(N)=O,ex vivo flow cytometry,"B16 tumour-bearing mice, spleen",dose not given,,IFN-γ+ CD8+ T cell frequency,5.87% and 6.61% and 7.7% and 5.66% and 7.16%
CCCCC1(CCCC)CN(c2ccccc2)c2cc(SC)c(OCC(=O)N[C@@H](C(=O)NCC(=O)O)c3ccccc3)cc2S(=O)(=O)C1,item: LDL cholesterol,"human, serum","10 mg once daily, day 14",,serum LDL-C,89.3 mg/dL
CC[C@H](C)[C@@H]1NC(=O)[C@@H]2CCCN2C(=O)[C@H](CC(C)C)NC(=O)[C@H](CC(C)C)NC(=O)CNC(=O)[C@@H](NC(=O)[C@@H](NC(=O)[C@H](CC(=O)O)NC(=O)CNC(=O)[C@@H](NC(=O)[C@H](C)NC(=O)CNC(=O)[C@H](CCCCN)NC(=O)[C@H](CC(C)C)NC(=O)[C@H](CC(C)C)NC(=O)[C@H](CCCCN)NC(=O)CNC(=O)[C@@H](NC(=O)[C@@H](N)CC(C)C)C(C)C)C(C)C)C(C)C)CSSC[C@@H](C(=O)O)NC1=O,"RNA-seq, item: Junb mRNA","mouse traumatic brain injury, frontal cortex and hippocampus",dose not given,reference: TBI plus compound vs TBI,log2 fold change,-2.4
Fc1ccc(C(OCCN2CCN(CCCc3ccccc3)CC2)c2ccc(F)cc2)cc1,,"mouse, nucleus accumbens","i.p., 20 mg/kg",,decay time of light-evoked dopamine release,increased
O=C(O)C1=CC(=C(c2ccc(O)c(C(=O)O)c2)c2ccc(O)c(C(=O)O)c2)C=CC1=O,flow cytometry,"C57BL/6J mouse MC-38 tumour, tumour-infiltrating lymphocytes","peritumoral, dose not given, 2 cycles",reference: CD8+ over CD4+,CD8+/CD4+ ratio,increased
Cc1cn(-c2cc(NC(=O)c3ccc(C)c(Nc4nccc(-c5cccnc5)n4)c3)cc(C(F)(F)F)c2)cn1,,Alzheimer's disease patients,"150 mg, 6 months, group mean",direction not given,MMSE score,17.2 ± 4.6
CCCCC1CNC2CCc3ccc(OC)cc3C12.Cl (racemic),"memory retention, foot-shock T-maze avoidance",SAMP8 mice,"intraperitoneal, 0.1 mg/kg daily",reference: vehicle,trials to criterion,decreased
COc1ncc(-c2nc3c(n2C(C)C)[C@H](c2ccc(Cl)cc2)N(c2cc(Cl)cn(C)c2=O)C3=O)c(OC)n1,"antileukemic activity, item: treatment failure, resistant disease","human, acute myeloid leukaemia","150 mg, high-dose, other doses",,best overall response,66.7%
CC(C)C1CCC(N2CCC(N3C(=O)/C(=N\O)c4ccccc43)CC2)CC1 (stereo not drawn),,conscious Sprague-Dawley rat,"intravenous bolus, 100 nmol/kg",,heart rate,decreased
